{"data": "Results gathered from unrelated publications", "note": "A part holds a random share of what one study measured."}
{"data": "Set 1", "target": "Histone acetyltransferase KAT6A, both winged helices, GST fusion (KAT6A, Homo sapiens, UniProt Q92794, residues 1-181)", "technique": "protein binding microarray", "form": "double-stranded DNA, one strand shown", "sample": "in vitro", "tested at": "not given", "notes": "8-mer, flanks averaged, mean of 2 arrays, mostly near background", "baseline": "not given", "direction": "higher = stronger binding", "Construct (chain)": "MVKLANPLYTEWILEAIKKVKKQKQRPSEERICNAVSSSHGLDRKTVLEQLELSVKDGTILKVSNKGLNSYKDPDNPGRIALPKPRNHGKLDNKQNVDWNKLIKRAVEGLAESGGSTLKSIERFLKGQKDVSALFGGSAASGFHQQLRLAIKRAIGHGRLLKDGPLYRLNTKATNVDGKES"}
{"Oligonucleotide": "AAGGGGGC", "E-score": -0.206}
{"Oligonucleotide": "AAGCGAAT", "E-score": 0.0735}
{"Oligonucleotide": "GTGCGCGA", "E-score": 0.29}
{"Oligonucleotide": "CAAGTGAA", "E-score": -0.146}
{"data": "Set 2", "target": "Transcription factor Sp1 (SP1, Homo sapiens, UniProt P08047, residues 1-785, full length assumed)", "technique": "protein-binding microarray", "form": "double-stranded DNA, one strand shown", "sample": "in vitro", "tested at": "not given", "notes": "k-mer, scored over probes, only values ≥0.25", "direction": "higher = stronger binding", "sequence of UniProt P08047 (whole entry, looked up)": "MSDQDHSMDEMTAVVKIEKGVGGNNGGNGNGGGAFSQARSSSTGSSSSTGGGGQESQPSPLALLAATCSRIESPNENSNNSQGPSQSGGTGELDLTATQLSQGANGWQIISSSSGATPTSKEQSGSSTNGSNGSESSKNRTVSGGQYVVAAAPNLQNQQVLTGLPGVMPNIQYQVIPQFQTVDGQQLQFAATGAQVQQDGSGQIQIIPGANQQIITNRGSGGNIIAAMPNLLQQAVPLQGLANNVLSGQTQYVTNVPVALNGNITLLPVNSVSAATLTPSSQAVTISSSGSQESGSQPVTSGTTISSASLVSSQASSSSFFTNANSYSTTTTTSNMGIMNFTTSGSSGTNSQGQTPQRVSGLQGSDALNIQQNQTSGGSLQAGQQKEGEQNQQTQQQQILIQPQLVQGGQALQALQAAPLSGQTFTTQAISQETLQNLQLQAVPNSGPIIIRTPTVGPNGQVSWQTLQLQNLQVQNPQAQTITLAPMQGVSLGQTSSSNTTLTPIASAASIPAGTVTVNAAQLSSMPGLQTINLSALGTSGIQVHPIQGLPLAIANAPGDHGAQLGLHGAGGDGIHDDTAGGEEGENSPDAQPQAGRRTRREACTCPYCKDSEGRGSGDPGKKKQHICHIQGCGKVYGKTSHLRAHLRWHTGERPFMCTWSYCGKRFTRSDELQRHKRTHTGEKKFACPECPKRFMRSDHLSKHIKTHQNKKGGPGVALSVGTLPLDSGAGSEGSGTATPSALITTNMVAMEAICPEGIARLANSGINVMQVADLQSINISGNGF"}
{"Oligonucleotide": "ACGCCCCA", "E-score": 0.372}
{"Oligonucleotide": "CAACCCAC", "E-score": 0.253}
{"Oligonucleotide": "ATACCACC", "E-score": 0.306}
{"Oligonucleotide": "AGGGGCGA", "E-score": 0.3}
{"data": "Set 3", "target": "Interferon regulatory factor 3, full length, phosphomimetic (IRF3, Homo sapiens, UniProt Q14653, residues 1-427, S386D/S396D/S398D/S402D/T404D/S405D)", "technique": "protein-binding microarray", "form": "double-stranded DNA, one strand shown", "sample": "in vitro", "tested at": "2540 nM top", "notes": "60-bp whole probe", "with": "salmon DNA 0.4 mg/ml", "baseline": "random background probes", "direction": "higher = stronger binding", "constant ends, left off below": "GCCTAGCAC … GTCTTGATTCGCTTGACGCTGCTG", "sequence of UniProt Q14653 (whole entry, unmodified, looked up)": "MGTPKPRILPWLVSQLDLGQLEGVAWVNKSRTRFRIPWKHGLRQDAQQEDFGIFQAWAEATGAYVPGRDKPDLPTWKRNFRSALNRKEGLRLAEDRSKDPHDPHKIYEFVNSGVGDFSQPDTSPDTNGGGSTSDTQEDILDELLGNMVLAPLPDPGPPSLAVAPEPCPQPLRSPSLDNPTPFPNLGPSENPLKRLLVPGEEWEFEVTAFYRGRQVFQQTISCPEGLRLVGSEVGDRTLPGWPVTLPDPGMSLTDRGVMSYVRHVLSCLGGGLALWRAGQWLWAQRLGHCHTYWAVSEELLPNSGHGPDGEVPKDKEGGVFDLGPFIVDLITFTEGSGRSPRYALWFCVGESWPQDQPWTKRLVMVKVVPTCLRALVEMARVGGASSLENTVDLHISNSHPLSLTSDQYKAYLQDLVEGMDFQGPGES"}
{"Oligonucleotide": "GAATGAATGGACATTTCTTCGTGCTAG", "fitted relative affinity": "0.671 z-score"}
{"Oligonucleotide": "GACGGTCTCCTTTTCCGGACGTGCTAG", "fitted relative affinity": "4.71 z-score"}
{"Oligonucleotide": "TCACCTCTAACTTTCCAACTGTGCTAG", "fitted relative affinity": "1.8 z-score"}
{"Oligonucleotide": "TCAGTTCTCTTTTATTTACTGTGCTAG", "fitted relative affinity": "3.49 z-score"}
{"Oligonucleotide": "TCACATTTGATAAATCTTACTGTGCTA", "fitted relative affinity": "0.655 z-score"}
{"Oligonucleotide": "TTTGAACTGGGGACTGGATTAGTGCTA", "fitted relative affinity": "-0.566 z-score"}
{"data": "Other studies, line by line"}
{"Substance": "PhoQ, residues 284 288 289 292 302 303 AMDMFI", "target": "PhoP, residues 12 14 15 18 19 TPWLV (Escherichia coli, UniProt P23836)", "test": "Sort-seq, measured: YFP reporter", "system": "E. coli", "setting": "PhoQ-PhoP variant library, with: 10 µM Mg2+", "scale": "baseline: high Mg2+ state, higher = stronger signaling", "endpoint": "fold induction", "result": 0.927}
{"note": "Excerpt of the above (set 3):"}
{"Oligonucleotide": "GAATGAATGGACATTTCTTCGTGCTAG", "fitted relative affinity": "0.671 z-score"}
{"Oligonucleotide": "TCACCTCTAACTTTCCAACTGTGCTAG", "fitted relative affinity": "1.8 z-score"}
